# Experimental data gathered from unrelated publications.
# Values joined by “and” are separate records of one study, mostly repeats; a detail may differ.
SMILES,system,conditions,Stokes shift
CC1(C)C(/C=C/C2=C(Cl)C(=C/C=C3/N(CCCCCC(=O)O)c4ccccc4C3(C)C)/C[N+](C)(C)C2)=[N+](CCCCCC(=O)O)c2ccccc21,10 mM PBS,pH 7.4,23 nm
COC(=O)c1ccccc1-c1c2ccc(=[N+](C)C)cc-2oc2c1ccc1cccc(N)c12,phosphate buffer 10% DMSO,pH 7.4,172 nm
CCn1cc(/C=C/c2sc3ccccc3[n+]2CC)c2ccccc21,DMSO,,69 nm
NCCC(=O)N1Cc2ccccc2-c2c(nnn2-c2nc(N)c3ncn(C4OC(CO)C(O)C4O)c3n2)-c2ccccc21 (mixture of isomers),methanol,,133 nm
COc1cc(OC)cc(C2=C3C(C)=C(I)C(/C=C/c4c[nH]c5ccc([N+](=O)[O-])cc45)=[N+]3[B-](F)(F)n3c(/C=C/c4c[nH]c5ccc([N+](=O)[O-])cc45)c(I)c(C)c32)c1,THF,,500 cm⁻¹
COC(=O)c1ccccc1-c1c2ccc(=[N+](C)C)cc-2oc2c1ccc1cccc(O)c12,aqueous HCl 10% DMSO,pH 1.9,47 nm
COc1cc(OC)cc(C2=C3C(C)=C(I)C(C)=[N+]3[B-](F)(F)n3c(/C=C/c4c[nH]c5ccc([N+](=O)[O-])cc45)c(I)c(C)c32)c1,THF,,592 cm⁻¹
CC1(C)C(=CC=C(C=CC2=[N+](CCC[N+](C)(C)C)c3ccc(S(=O)(=O)[O-])cc3C2(C)C)CCC(=O)[O-])N(CCC[N+](C)(C)C)c2ccc(S(=O)(=O)[O-])cc21,100% serum,pH 7.4,18 nm
COc1cc(OC)cc(C2=C3C(C)=C(I)C(/C=C/c4cccs4)=[N+]3[B-](F)(F)n3c(/C=C/c4cccs4)c(I)c(C)c32)c1,dichloromethane,,263 cm⁻¹
CC1(C)C(=CC=C(C=CC2=[N+](CCC[N+](C)(C)C)c3ccc(S(=O)(=O)[O-])cc3C2(C)C)Oc2ccc(CCC(=O)[O-])cc2)N(CCC[N+](C)(C)C)c2ccc(S(=O)(=O)[O-])cc21,100% serum,pH 7.4,19 nm
Nc1ncnc2c1nc(-n1nnc3c1CCC1C(CO)C1CC3)n2C1CC(O)C(CO)O1 (mixture of isomers),methanol,,107 nm
CCn1cc(/C=C/c2ccc3ccccc3[n+]2CC)c2ccccc21,PBS,,> 70 nm and 87 nm
Nc1nc(-n2nnc3c2CCC2C(CO)C2CC3)nc2c1ncn2C1OC(CO)C(O)C1O (mixture of isomers),methanol,,66 nm
COCCOCCOCCOc1ccc(/C=C/c2c(I)c(C)c3n2[B-](F)(F)[N+]2=C(C)C(I)=C(C)C2=C3c2cc(OC)cc(OC)c2)cc1,THF,,383 cm⁻¹

# Some of these lines once more:
SMILES,system,conditions,Stokes shift
Nc1nc(-n2nnc3c2CCC2C(CO)C2CC3)nc2c1ncn2C1OC(CO)C(O)C1O (mixture of isomers),methanol,,66 nm
COCCOCCOCCOc1ccc(/C=C/c2c(I)c(C)c3n2[B-](F)(F)[N+]2=C(C)C(I)=C(C)C2=C3c2cc(OC)cc(OC)c2)cc1,THF,,383 cm⁻¹
